Measurements from different studies.
Compare with care: the assays were run in different laboratories. ± marks the error that the study gave.
Nuclear receptor subfamily 2 group C member 2 ligand-binding domain: Nuclear receptor subfamily 2 group C member 2, ligand-binding domain (Homo sapiens, UniProt P49116)
Chain of UniProt P49116 (whole entry, looked up): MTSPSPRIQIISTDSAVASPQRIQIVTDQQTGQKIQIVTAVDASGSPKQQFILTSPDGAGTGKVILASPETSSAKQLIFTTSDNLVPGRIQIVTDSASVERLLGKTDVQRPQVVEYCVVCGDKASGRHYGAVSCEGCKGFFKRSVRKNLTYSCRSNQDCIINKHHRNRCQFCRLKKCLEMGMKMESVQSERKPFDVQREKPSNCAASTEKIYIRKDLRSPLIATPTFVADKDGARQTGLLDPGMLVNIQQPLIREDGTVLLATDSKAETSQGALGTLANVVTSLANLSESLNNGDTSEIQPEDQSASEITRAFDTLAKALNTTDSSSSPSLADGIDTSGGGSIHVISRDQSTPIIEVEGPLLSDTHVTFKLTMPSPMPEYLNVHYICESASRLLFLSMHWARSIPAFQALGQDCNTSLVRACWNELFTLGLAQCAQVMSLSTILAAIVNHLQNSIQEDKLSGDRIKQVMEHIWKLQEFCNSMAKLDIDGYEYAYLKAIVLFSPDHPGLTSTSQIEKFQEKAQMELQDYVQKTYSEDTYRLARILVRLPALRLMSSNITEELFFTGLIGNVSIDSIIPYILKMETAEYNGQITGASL
YWHAG/RELA phospho-Ser45 p65 peptide: YWHAG/RELA, phospho-Ser45 p65 peptide (Homo sapiens, UniProt P61981+Q04206)
Chain of UniProt Q04206 (whole entry, looked up): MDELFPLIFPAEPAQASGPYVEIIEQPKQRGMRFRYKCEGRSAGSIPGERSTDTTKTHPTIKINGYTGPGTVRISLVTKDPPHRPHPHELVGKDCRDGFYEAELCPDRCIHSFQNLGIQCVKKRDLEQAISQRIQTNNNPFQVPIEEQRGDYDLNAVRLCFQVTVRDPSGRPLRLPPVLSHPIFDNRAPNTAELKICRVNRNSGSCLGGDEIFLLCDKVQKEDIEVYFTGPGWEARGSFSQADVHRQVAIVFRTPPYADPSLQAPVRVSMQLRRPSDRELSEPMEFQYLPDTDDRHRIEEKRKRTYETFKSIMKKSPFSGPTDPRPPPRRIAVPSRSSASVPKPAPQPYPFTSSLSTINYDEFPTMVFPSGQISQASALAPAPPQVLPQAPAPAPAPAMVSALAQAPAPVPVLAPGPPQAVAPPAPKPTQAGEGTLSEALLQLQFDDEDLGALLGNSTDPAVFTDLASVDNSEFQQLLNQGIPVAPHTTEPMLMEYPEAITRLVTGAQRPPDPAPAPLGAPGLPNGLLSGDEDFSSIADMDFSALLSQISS
Chain of UniProt P61981 (whole entry, looked up): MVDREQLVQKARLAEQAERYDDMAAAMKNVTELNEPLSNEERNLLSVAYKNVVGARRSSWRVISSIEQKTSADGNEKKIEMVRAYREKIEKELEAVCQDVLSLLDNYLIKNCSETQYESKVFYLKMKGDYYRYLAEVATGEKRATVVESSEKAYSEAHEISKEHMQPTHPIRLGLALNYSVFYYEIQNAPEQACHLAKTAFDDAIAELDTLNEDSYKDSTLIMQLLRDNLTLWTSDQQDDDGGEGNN
AHSG asialo: Alpha-2-HS-glycoprotein, asialo (AHSG, Bos taurus, UniProt P12763)
Chain of UniProt P12763 (whole entry, looked up): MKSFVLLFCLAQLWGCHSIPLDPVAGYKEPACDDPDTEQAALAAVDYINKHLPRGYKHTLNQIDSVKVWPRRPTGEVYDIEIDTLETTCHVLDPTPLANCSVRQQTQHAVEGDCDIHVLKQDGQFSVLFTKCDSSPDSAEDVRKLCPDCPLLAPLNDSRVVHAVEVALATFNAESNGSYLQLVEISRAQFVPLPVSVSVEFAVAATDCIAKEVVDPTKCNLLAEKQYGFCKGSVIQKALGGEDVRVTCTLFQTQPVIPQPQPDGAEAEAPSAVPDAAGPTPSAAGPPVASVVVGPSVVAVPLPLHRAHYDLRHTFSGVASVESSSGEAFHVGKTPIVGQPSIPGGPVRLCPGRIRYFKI
Chain of UniProt Q9UQM7 (whole entry, looked up): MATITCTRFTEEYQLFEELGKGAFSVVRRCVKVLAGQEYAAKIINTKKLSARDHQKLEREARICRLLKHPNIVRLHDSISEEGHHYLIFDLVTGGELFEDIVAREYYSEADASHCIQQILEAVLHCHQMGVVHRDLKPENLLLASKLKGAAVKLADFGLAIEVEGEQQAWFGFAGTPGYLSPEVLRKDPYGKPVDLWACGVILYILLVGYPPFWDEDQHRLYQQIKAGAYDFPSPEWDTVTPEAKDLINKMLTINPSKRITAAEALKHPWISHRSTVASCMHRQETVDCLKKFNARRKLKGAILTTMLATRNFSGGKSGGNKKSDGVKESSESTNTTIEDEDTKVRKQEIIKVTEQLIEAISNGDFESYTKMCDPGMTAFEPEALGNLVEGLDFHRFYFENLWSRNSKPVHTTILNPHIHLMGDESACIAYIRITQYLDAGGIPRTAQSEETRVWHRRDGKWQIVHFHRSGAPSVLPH
Chain of UniProt Q9X6J6 (whole entry, looked up): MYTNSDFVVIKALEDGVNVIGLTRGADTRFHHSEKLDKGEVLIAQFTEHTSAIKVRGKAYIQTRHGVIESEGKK
Chain of UniProt Q13131 (whole entry, looked up): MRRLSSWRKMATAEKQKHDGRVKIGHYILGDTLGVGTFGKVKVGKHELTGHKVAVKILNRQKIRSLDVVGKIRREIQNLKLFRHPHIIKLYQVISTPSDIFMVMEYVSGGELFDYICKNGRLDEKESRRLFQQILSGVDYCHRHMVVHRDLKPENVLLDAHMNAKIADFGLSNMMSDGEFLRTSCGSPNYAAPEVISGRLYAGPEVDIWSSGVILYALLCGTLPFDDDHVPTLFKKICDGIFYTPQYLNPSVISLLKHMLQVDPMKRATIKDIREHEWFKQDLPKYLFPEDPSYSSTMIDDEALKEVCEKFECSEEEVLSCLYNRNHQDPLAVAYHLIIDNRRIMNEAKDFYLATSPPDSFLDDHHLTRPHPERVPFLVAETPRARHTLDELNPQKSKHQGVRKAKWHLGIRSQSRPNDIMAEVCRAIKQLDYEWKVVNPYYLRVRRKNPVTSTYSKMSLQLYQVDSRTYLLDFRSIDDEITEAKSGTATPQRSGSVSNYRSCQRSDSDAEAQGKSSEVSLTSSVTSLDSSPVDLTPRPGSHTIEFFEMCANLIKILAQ
Chain of UniProt Q16774 (whole entry, unmodified, looked up): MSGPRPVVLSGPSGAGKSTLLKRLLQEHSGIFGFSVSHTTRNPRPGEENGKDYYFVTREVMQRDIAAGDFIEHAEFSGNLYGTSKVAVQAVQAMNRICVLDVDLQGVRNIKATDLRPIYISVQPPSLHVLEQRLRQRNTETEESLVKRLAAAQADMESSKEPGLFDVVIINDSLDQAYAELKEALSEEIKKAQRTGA
Chain of UniProt P02754 (whole entry, looked up): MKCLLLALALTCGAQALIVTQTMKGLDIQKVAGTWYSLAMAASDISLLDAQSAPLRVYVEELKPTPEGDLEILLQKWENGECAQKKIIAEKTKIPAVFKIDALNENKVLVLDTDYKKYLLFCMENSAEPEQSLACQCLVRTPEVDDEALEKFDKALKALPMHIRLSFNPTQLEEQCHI
Chain of UniProt P30988 (whole entry, looked up): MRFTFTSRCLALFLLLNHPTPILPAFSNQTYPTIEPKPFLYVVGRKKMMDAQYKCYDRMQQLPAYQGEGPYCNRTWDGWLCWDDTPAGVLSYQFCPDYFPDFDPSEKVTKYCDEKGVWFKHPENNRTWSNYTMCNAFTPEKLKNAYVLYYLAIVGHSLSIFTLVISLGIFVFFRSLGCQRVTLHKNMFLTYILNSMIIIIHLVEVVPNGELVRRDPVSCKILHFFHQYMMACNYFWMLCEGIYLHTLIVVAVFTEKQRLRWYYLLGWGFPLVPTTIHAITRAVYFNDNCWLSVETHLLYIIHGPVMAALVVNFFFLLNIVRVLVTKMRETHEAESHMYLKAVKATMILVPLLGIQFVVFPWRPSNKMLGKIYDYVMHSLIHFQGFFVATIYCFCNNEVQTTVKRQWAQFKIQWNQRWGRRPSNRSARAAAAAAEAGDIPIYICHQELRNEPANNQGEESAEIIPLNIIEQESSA
Chain of UniProt P19659 (1-357, looked up): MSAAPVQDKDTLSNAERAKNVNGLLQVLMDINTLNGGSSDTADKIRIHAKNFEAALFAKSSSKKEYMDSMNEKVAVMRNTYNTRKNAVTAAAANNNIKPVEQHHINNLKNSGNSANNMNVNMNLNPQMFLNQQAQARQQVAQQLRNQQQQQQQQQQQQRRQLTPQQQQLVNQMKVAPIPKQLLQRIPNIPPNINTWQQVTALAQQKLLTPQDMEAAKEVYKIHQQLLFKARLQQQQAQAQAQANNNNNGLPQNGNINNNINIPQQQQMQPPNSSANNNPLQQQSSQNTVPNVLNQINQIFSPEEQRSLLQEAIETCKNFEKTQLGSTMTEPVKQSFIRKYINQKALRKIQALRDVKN
Chain of UniProt Q8NEZ5 (whole entry, looked up): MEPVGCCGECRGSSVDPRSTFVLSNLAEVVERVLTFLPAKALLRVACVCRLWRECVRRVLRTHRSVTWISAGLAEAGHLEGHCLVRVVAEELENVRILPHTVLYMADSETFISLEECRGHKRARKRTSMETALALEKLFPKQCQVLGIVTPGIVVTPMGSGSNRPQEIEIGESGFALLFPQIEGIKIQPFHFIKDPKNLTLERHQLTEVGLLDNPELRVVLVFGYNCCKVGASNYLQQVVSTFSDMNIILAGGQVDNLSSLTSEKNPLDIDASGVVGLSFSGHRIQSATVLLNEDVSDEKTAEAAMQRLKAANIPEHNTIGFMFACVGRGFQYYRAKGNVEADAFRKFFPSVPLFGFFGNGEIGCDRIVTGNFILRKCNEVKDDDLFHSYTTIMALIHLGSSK

| SMILES | target | assay | test system | conditions | endpoint | value |
| --- | --- | --- | --- | --- | --- | --- |
| [N-]=[N+]=NCC1OC(OC2C(N)CC(N)C(OC3OC(CN)C(O)C(O)C3O)C2O)C(O)C(N)C1O (stereo not drawn) | RNA, 5′CC/3′CC internal loops | RNA binding, fluorescence titration | – | 1 h, room temperature, 12 copies of 2×2 loop | Kd | > 5000 nM |
| CCOC(=O)c1ccc(C#Cc2ccc3c(c2)C(C)(C)CCS3)nc1 | Nuclear receptor subfamily 2 group C member 2 ligand-binding domain | SPR imaging | – | – | Kd | 0.166 nM |
| Nc1ncnc2c1ncn2[C@@H]1O[C@H](COP(=O)(O)OP(=O)(O)OP(=O)(O)O)[C@@H](O)[C@H]1O | CKMT1A (Homo sapiens, UniProt P12532, E265D) | microscale thermophoresis | – | pH 8.5, E227D mutant, no substrate | Kd | 6000 ± 3000 nM |
| O=Cc1ccc(-n2ccnc2)cc1 | YWHAG/RELA phospho-Ser45 p65 peptide | ternary complex formation, stabilizer, fluorescence anisotropy | – | – | EC50 | > 1000 µM |
| CCCCN1CCCCC1C(=O)Nc1c(C)cccc1C (stereo not drawn) | Nuclear receptor subfamily 2 group C member 2 ligand-binding domain | SPR imaging | – | – | Kd | 0.0734 nM |
| NC(=O)C1=CN([C@@H]2O[C@H](COP(=O)(O)OP(=O)(O)OC[C@H]3O[C@@H](n4cnc5c(N)ncnc54)[C@H](O)[C@@H]3O)[C@@H](O)[C@H]2O)C=CC1 | Polyketide synthase, terminal amidation domain (Moorena producens, UniProt F4Y2B0) | binding, tryptophan fluorescence quenching | – | – | Kd | 85000 ± 7000 nM |
| CC(=O)N[C@@H](COP(=O)(O)O)C(=O)N1CCC[C@H]1C(=O)N[C@@H](C)C(=O)N[C@@H](Cc1ccccc1)C(N)=O | Breast cancer type 1 susceptibility protein, tandem BRCT domains (BRCA1, Homo sapiens, UniProt P38398) | NMR titration | – | pH 7.0, 30 °C | Kd | 21000 ± 11000 nM |
| COc1ccccc1N1CCN(CC(O)COc2cccc3ccccc23)CC1 (stereo not drawn) | Nuclear receptor subfamily 2 group C member 2 ligand-binding domain | SPR imaging | – | – | Kd | 0.015 nM |
| CC(C)C[C@H](NC(=O)[C@@H]1CCCN1C(=O)[C@H](CO)NC(=O)[C@H](CC(N)=O)NC(=O)[C@@H](N)CCC(=O)O)C(=O)N[C@@H](Cc1c[nH]c2ccccc12)C(=O)N[C@@H](Cc1c[nH]c2ccccc12)C(=O)N1CCC[C@H]1C(=O)N[C@@H](CCC(N)=O)C(=O)N1CCC[C@H]1C(=O)N[C@@H](CC(C)C)C(=O)N[C@@H](C)C(=O)O | Mediator of RNA polymerase II transcription subunit 15, residues 1-357 (GAL11, Saccharomyces cerevisiae, UniProt P19659) | binding, fluorescence polarization | – | with: fluorescein-labeled peptide | Kd | 83000 ± 5000 nM |
| N[C@@H](CCC(=O)N[C@@H](CS)C(=O)NCC(=O)O)C(=O)O | Cu(I) | binding, bicinchoninic acid competition | – | 4000 µM, with: bicinchoninic acid 40 µM | Kd | 0.0308 nM |
| C[C@H](N)C(=O)N[C@@H](C)C(=O)N[C@H](C(=O)N[C@@H](CCCCN)C(=O)N[C@@H](CCC(N)=O)C(=O)N[C@H](C(=O)N[C@@H](C)C(=O)N[C@@H](CCCNC(=N)N)C(=O)N[C@@H](CCCCN)C(=O)N[C@@H](CO)C(=O)O)[C@@H](C)O)[C@@H](C)O | Transcriptional regulator ATRX (ATRX, Homo sapiens, UniProt P46100, F284Y/K251R) | binding | – | – | Kd | 127000 nM |
| O=Cc1ccc(C(=O)N2CCCC(O)C2)cc1 (stereo not drawn) | YWHAG/RELA phospho-Ser45 p65 peptide | ternary complex formation, stabilizer, fluorescence anisotropy | – | – | EC50 | > 1000 µM |
| CC(C)C[C@@H]1NC(=O)[C@H](C(C)C)NC(=O)CNC(=O)[C@H](CC(N)=O)NC(=O)[C@@H]2CCCN2C(=O)[C@H](Cc2ccc(O)cc2)NC(=O)[C@H](CCCNC(=N)N)NC(=O)[C@H](C)NC(=O)[C@@H](NC(=O)[C@H](CCCCN)NC(=O)[C@@H]2CCCN2C(=O)[C@H](CO)NC(=O)[C@H](C)NC(=O)[C@@H](N)Cc2ccc(O)cc2)CSSC[C@@H](C(=O)N[C@H](C(N)=O)[C@@H](C)O)NC(=O)[C@H](C)NC1=O | AHSG asialo | binding, isothermal titration calorimetry | – | pH 7.0, 25 °C, with: asialofetuin | Kd | 202000 nM |
| CN[C@@H]1[C@H](O)[C@H](NC)[C@H]2O[C@@]3(O)C(=O)C[C@@H](C)O[C@H]3O[C@@H]2[C@H]1O | Nuclear receptor subfamily 2 group C member 2 ligand-binding domain | SPR imaging | – | – | Kd | 0.0369 nM |
| CC1CCCCN1C(=O)CSc1nc(-c2ccc(C(C)(C)C)cc2)nc2cc(=O)[nH]n12 (stereo not drawn) | F-box only protein 22, with SKP1 (Homo sapiens, UniProt Q8NEZ5) | binding, SPR | – | 20 °C | Kd | > 6500 nM |
| O=C(O)Cc1c(Br)[nH]c2ccccc12 | Cystic fibrosis transmembrane conductance regulator, NBD1 (CFTR, Homo sapiens, UniProt P13569, F494N) | surface plasmon resonance | – | immobilized NBD1 | Kd | 964000 nM |
| O=C(O)Cc1cn2nc(-c3ccc(Cl)cc3)ccc2n1 | CAMK2A (Homo sapiens, UniProt Q9UQM7) | surface plasmon resonance | – | pH 7.4, HBS-P buffer | Kd | 960 nM |
| Nc1nc2c(ncn2[C@@H]2O[C@@H]3COP(=O)(O)O[C@H]4[C@@H](O)[C@H](n5cnc6c(=O)[nH]c(N)nc65)O[C@@H]4COP(=O)(O)O[C@H]3[C@H]2O)c(=O)[nH]1 | Cell cycle histidine kinase CckA, DHp-CA domains (Caulobacter vibrioides, UniProt Q9X688) | isothermal titration calorimetry | Caulobacter crescentus | 12 °C, with: AMPPNP 5 mM | Kd | 33000 nM |
| N[C@@H](Cc1c[nH]c2ccccc12)C(=O)O | Transcription attenuation protein MtrB (mtrB, Geobacillus stearothermophilus, UniProt Q9X6J6) | native mass spectrometry titration | – | – | Kd | 870 nM |
| O=C(O)c1cccnc1 | Nuclear receptor subfamily 2 group C member 2 ligand-binding domain | binding | – | – | Kd | 1.14 nM |
| CC(C)C[C@@H]1NC(=O)[C@H](C(C)C)NC(=O)CNC(=O)[C@H](CC(N)=O)NC(=O)[C@@H]2CCCN2C(=O)[C@H](Cc2ccc(O)cc2)NC(=O)[C@H](CCCNC(=N)N)NC(=O)[C@H](Cc2ccccc2)NC(=O)[C@@H](NC(=O)[C@H](CCCCN)NC(=O)[C@H](C)NC(=O)[C@H](CO)NC(=O)[C@H](C)NC(=O)[C@@H](N)Cc2ccc(O)cc2)CSSC[C@@H](C(=O)N[C@H](C(N)=O)[C@@H](C)O)NC(=O)[C@H](C)NC1=O | AHSG asialo | binding, isothermal titration calorimetry | – | pH 7.0, 25 °C, with: asialofetuin | Kd | 65500 nM |
| N#C[C@@H]1CCCN1C(=O)CNC12CC3CC(CC(O)(C3)C1)C2 | Nuclear receptor subfamily 2 group C member 2 ligand-binding domain | SPR imaging | – | – | Kd | 0.323 nM |
| CC(C)C[C@H](NC(=O)[C@H](CCCNC(=N)N)NC(=O)[C@@H](NC(=O)[C@H](CC(C)C)NC(=O)[C@H](Cc1ccccc1)NC(=O)[C@H](CC(N)=O)NC(=O)[C@H](C)NC(=O)CCCCCNC(=S)Nc1ccc2c(c1)C(=O)OC21c2ccc(O)cc2Oc2cc(O)ccc21)C(C)C)C(=O)N[C@@H](CCC(N)=O)C(=O)N[C@H](C(=O)N[C@@H](Cc1ccc(O)cc1)C(=O)N1CCC[C@H]1C(=O)N[C@@H](CCCNC(=N)N)C(=O)N[C@H](C(=O)N[C@@H](CC(N)=O)C(=O)N[C@H](C(=O)NCC(=O)N[C@@H](C)C(=O)N[C@@H](CC(N)=O)C(=O)N[C@H](C(=O)N1CCC[C@H]1C(N)=O)[C@@H](C)O)C(C)C)[C@@H](C)O)[C@@H](C)O | Calcitonin receptor, extracellular domain (CALCR, Homo sapiens, UniProt P30988) | peptide binding, fluorescence polarization | – | pH 7.4 | Kd | 97.7 nM |
| CCCN1CCN(c2ccc(-c3cncc(Cl)c3N3CCC4(CCNC4=O)CC3)cc2)CC1 | CCNC human | SILAC competition | LS174T-L5 lysate | – | Kd | 11 nM |
| CCCCC[C@H](O)/C=C/[C@H]1[C@H](O)CC(=O)[C@@H]1CCCCCCC(=O)O | Nuclear receptor subfamily 2 group C member 2 ligand-binding domain | SPR imaging | – | – | Kd | 24 nM |
| CC1=C[C@H](O)CC(C)(C)[C@H]1/C=C/C(C)=C/C=C/C(C)=C/C=C/C=C(C)/C=C/C=C(C)/C=C/C1=C(C)C[C@@H](O)CC1(C)C | Beta-lactoglobulin (LGB, Bos taurus, UniProt P02754) | binding, fluorescence quenching | PBS | 30 min, 298 K | Kd | 0.0251 nM |
| C=CC(=O)N1CCN(c2nc(OC[C@@H]3CCCN3C)nc3c(F)c(-c4nc(N)cc(C)c4C(F)(F)F)c(Cl)cc23)[C@@H](C)C1 | GTPase KRas, GDP-bound (KRAS, Homo sapiens, UniProt P01116, G12V) | SPR | – | – | Kd | 5150 ± 1300 nM |
| N#Cc1c(O)c2c(-c3ccc(-c4ccccc4O)cc3)csc2[nH]c1=O | 5'-AMP-activated protein kinase catalytic subunit alpha-1, with beta1, gamma1 (PRKAA1, Homo sapiens, UniProt Q13131) | binding, SPR | – | His-GST-tagged target immobilized | Kd | 2460 nM |
| O=C(O)CCCC[C@@H]1SC[C@@H]2NC(=O)N[C@@H]21 | Nuclear receptor subfamily 2 group C member 2 ligand-binding domain | SPR imaging | – | – | Kd | 0.223 nM |
| Nc1nc2c(ncn2[C@@H]2O[C@H](COP(=O)(O)OP(=O)(O)O)[C@@H](O)[C@H]2O)c(=O)[nH]1 | GUK1 (Homo sapiens, UniProt Q16774, R137A) | binding, ITC | – | 25 °C, with: GMP | Kd | 105000 ± 70000 nM |

Excerpt of the above:
| SMILES | target | assay | test system | conditions | endpoint | value |
| --- | --- | --- | --- | --- | --- | --- |
| NC(=O)C1=CN([C@@H]2O[C@H](COP(=O)(O)OP(=O)(O)OC[C@H]3O[C@@H](n4cnc5c(N)ncnc54)[C@H](O)[C@@H]3O)[C@@H](O)[C@H]2O)C=CC1 | Polyketide synthase, terminal amidation domain (Moorena producens, UniProt F4Y2B0) | binding, tryptophan fluorescence quenching | – | – | Kd | 85000 ± 7000 nM |
| CC(C)C[C@@H]1NC(=O)[C@H](C(C)C)NC(=O)CNC(=O)[C@H](CC(N)=O)NC(=O)[C@@H]2CCCN2C(=O)[C@H](Cc2ccc(O)cc2)NC(=O)[C@H](CCCNC(=N)N)NC(=O)[C@H](C)NC(=O)[C@@H](NC(=O)[C@H](CCCCN)NC(=O)[C@@H]2CCCN2C(=O)[C@H](CO)NC(=O)[C@H](C)NC(=O)[C@@H](N)Cc2ccc(O)cc2)CSSC[C@@H](C(=O)N[C@H](C(N)=O)[C@@H](C)O)NC(=O)[C@H](C)NC1=O | AHSG asialo | binding, isothermal titration calorimetry | – | pH 7.0, 25 °C, with: asialofetuin | Kd | 202000 nM |
